Measurements collected from several papers.
Every numbered part comes from another study and shows a few of its results, in no order.
Sequence of UniProt Q14653 (whole entry, unmodified, looked up): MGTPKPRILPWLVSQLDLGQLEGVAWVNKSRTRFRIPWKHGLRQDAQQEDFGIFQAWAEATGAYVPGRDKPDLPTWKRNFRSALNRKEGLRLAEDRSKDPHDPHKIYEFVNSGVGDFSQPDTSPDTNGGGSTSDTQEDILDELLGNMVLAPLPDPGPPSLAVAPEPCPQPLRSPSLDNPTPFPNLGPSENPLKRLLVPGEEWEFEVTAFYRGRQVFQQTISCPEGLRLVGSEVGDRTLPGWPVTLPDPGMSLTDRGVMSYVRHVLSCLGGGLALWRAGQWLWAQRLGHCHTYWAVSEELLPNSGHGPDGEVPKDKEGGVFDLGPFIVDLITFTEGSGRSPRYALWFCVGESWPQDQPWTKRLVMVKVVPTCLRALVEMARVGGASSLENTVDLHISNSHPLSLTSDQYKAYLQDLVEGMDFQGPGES

Block 1
Target: Sal-like protein 4, full length isoform A (SALL4, Homo sapiens, UniProt Q9UJQ4, residues 1-1053)
Sequence of UniProt Q9UJQ4 (whole entry, looked up): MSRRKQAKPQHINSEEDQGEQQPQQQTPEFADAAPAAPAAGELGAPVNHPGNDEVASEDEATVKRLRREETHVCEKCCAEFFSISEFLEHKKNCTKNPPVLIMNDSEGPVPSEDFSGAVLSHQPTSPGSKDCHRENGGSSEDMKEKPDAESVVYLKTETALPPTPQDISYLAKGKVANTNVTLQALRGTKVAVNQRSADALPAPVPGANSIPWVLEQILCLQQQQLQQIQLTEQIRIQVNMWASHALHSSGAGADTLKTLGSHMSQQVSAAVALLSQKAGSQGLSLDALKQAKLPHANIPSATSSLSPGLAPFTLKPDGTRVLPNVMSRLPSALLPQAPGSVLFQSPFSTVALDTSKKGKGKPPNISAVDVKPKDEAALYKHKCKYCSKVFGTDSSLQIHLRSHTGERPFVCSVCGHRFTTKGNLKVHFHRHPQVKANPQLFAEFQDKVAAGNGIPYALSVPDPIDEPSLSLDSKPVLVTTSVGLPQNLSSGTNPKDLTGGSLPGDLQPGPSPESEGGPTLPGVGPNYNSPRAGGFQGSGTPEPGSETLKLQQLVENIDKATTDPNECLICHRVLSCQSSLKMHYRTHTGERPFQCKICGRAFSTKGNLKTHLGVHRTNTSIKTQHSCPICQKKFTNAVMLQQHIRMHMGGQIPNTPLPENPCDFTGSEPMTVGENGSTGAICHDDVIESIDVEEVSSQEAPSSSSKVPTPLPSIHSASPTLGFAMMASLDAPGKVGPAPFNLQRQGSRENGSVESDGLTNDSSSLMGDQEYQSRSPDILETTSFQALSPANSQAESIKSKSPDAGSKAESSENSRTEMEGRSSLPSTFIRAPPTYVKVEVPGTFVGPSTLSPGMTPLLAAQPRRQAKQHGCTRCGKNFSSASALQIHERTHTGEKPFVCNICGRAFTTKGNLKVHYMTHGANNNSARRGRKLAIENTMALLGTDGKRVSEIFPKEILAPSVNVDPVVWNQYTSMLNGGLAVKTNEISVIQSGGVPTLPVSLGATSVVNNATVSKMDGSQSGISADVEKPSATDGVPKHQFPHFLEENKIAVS
Method: universal PBM
Form: double-stranded DNA, one strand shown
Matrix: in vitro
Concentration: 600 nM
Notes: 8-mer, flanks averaged, mean of replicates
Reading: higher = stronger binding
Endpoint: E-score
AATCGTTC: 0.0543
ATGACCTG: 0.0231
CGCCAGAC: -0.22
GTTCGAAC: -0.0206
AACGCGTT: -0.0481

Block 2
Target: Histone acetyltransferase KAT6A, both winged helices, GST fusion (KAT6A, Homo sapiens, UniProt Q92794, residues 1-181)
Method: protein binding microarray
Form: double-stranded DNA, one strand shown
Matrix: in vitro
Concentration: not given
Notes: 8-mer, flanks averaged, mean of 2 arrays, mostly near background
Baseline: not given
Reading: higher = stronger binding
Endpoint: E-score
Construct (chain): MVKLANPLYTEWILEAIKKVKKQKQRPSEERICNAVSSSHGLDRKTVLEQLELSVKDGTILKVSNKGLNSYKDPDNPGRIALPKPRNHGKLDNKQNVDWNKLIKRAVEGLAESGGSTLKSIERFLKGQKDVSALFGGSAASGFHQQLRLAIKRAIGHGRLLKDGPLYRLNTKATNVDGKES
AAGAACTG: -0.0722
CACCAAGA: -0.2
ACTTGCAC: -0.159

Further values, each from its own experiment
PhoQ, residues 284 288 289 292 302 303 GASLAW
fold induction (PhoP, residues 12 14 15 18 19 VHSCL (Escherichia coli, UniProt P23836); Sort-seq, refers to: YFP reporter; E. coli; PhoQ-PhoP variant library, with: 10 µM Mg2+; baseline: high Mg2+ state, higher = stronger signaling): 1.14

GCCTAGCACTTAGGTCTCCTTCTGCTTTAGTGCTAGGTCTTGATTCGCTTGACGCTGCTG
fitted relative affinity (Interferon regulatory factor 3, full length, phosphomimetic (IRF3, Homo sapiens, UniProt Q14653, residues 1-427, S386D/S396D/S398D/S402D/T404D/S405D); protein-binding microarray; double-stranded DNA, one strand shown, in vitro; 2540 nM top, 60-bp whole probe, with: salmon DNA 0.4 mg/ml; baseline: random background probes, higher = stronger binding): 1.88 z-score

Excerpt of the above (block 2):
AAGAACTG: -0.0722
CACCAAGA: -0.2
